{"data": "Experimental data of several laboratories", "rep main protease": "Replicase polyprotein 1ab, main protease (rep, Severe acute respiratory syndrome coronavirus 2, UniProt P0DTD1)", "Spike glycoprotein": "Spike glycoprotein (Severe acute respiratory syndrome coronavirus 2, UniProt P0DTC2)", "note": "Protocols differ between the studies behind these lines. ± gives the spread as reported."}
{"Compound": "Nc1ncnc2c1cnn2C1CCN(C(=O)c2ccc(S(=O)(=O)F)cc2)CC1", "target or system": "cya (Bacillus anthracis, UniProt P40136)", "endpoint": "kinact", "result": "0.00433 s⁻¹"}
{"Compound": "O=C(NCCC[C@@H](NC(=O)c1cccc2cc(=O)[nH]cc12)c1ccccc1)c1cn[nH]c(=O)c1", "target or system": "rep main protease", "assay": "enzyme activity, inhibitor", "conditions": "5 µM, run 2", "endpoint": "inhibition", "result": "15.9%"}
{"Compound": "CC(=O)c1c(O)c(C)c(O)c(Cc2c(O)c3c(c(C(=O)/C=C/c4ccccc4)c2O)OC(C)(C)C=C3)c1O", "target or system": "KCNH2 (Homo sapiens, UniProt Q12809)", "assay": "ion current, whole-cell patch clamp", "system": "HEK293 expressing hERG1", "conditions": "4 µM, at -120 mV", "endpoint": "fast deactivation time constant", "result": "30 ± 2 ms"}
{"Compound": "Nc1ncnc2c([C@@H]3N[C@H](CO)[C@@H](O)[C@H]3O)c[nH]c12", "target or system": "Zaire ebolavirus", "assay": "viral replication, inhibitor", "system": "human Macrophage", "conditions": "1.6 µM", "endpoint": "inhibition", "result": "1.2%"}
{"Compound": "CC[C@H](C)[C@H](NC(=O)[C@H](CC(C)C)NC(=O)[C@H](Cc1c[nH]c2ccccc12)NC(=O)[C@H](CCC(N)=O)NC(=O)[C@@H](NC(=O)[C@H](Cc1ccccc1)NC(=O)[C@H](C)NC(=O)[C@H](CCCCNC(=O)COCCOCCNC(=O)COCCOCCNC(=O)CC[C@H](NC(=O)CCCCCCCCCCCCCCCCCCC(=O)O)C(=O)O)NC(=O)[C@H](CCC(N)=O)NC(=O)[C@H](C)NC(=O)[C@@H](NC(=O)[C@H](CCCCN)NC(=O)[C@H](CC(=O)O)NC(=O)[C@H](CC(C)C)NC(=O)C(C)(C)NC(=O)[C@@H](NC(=O)[C@H](CO)NC(=O)[C@H](Cc1ccc(O)cc1)NC(=O)[C@H](CC(=O)O)NC(=O)[C@H](CO)NC(=O)[C@@H](NC(=O)[C@H](Cc1ccccc1)NC(=O)[C@@H](NC(=O)CNC(=O)[C@H](CCC(=O)O)NC(=O)C(C)(C)NC(=O)[C@@H](N)Cc1ccc(O)cc1)[C@@H](C)O)[C@@H](C)O)[C@@H](C)CC)[C@@H](C)CC)C(C)C)C(=O)N[C@@H](C)C(=O)NCC(=O)NCC(=O)N1CCC[C@H]1C(=O)N[C@@H](CO)C(=O)N[C@@H](CO)C(=O)NCC(=O)N[C@@H](C)C(=O)N1CCC[C@H]1C(=O)N1CCC[C@H]1C(=O)N1CCC[C@H]1C(=O)N[C@@H](CO)C(N)=O", "system": "healthy subjects, single ascending dose", "conditions": "5.0 mg, titre increase ≥4-fold", "endpoint": "treatment-boosted ADA positive subjects", "result": "0%"}
{"Compound": "CC(C)N(CCC(=O)c1ccc2ccccc2c1)Cc1ccccc1", "target or system": "Replicase polyprotein 1ab, nsp14 N7-methyltransferase (rep, Severe acute respiratory syndrome coronavirus 2, UniProt P0DTD1)", "assay": "N7-methyltransferase activity, inhibitor, Py-FLINT", "endpoint": "Hill slope", "result": "1.5 ± 0.35"}
{"Compound": "CC(C)=CCC[C@]1(C)C=Cc2c(O)c3c(c(CC=C(C)C)c2O1)O[C@]12C(=C[C@@H]4C[C@H]1C(C)(C)O[C@@]2(C/C=C(/C)C(=O)O)C4=O)C3=O", "target or system": "Spike glycoprotein", "assay": "binding, BLI", "endpoint": "koff", "result": "0.00448 s⁻¹"}
{"Compound": "CC(C)C[C@H](NC(=O)[C@H](CCc1ccccc1)NC(=O)CN1CCOCC1)C(=O)N[C@@H](Cc1ccccc1)C(=O)N[C@@H](CC(C)C)C(=O)[C@@]1(C)CO1", "target or system": "rep main protease", "assay": "reporter gene (mKate2), inhibitor", "conditions": "20 µM", "endpoint": "inhibition", "result": "-0.81%"}
{"Compound": "CCCCCCCCCC(C)CCC(C)C(=O)OC (stereo not shown)", "target or system": "Spike glycoprotein, RBD (Severe acute respiratory syndrome coronavirus 2, UniProt P0DTC2)", "assay": "binding", "conditions": "concentration not given", "endpoint": "activity", "result": "inactive"}
{"Compound": "Cn1cnc(Cn2c(=O)[nH]/c(=N\\c3cc4cn(C)nc4cc3Cl)n(Cc3cc(F)c(F)cc3F)c2=O)n1", "system": "human, normal renal function", "conditions": "oral, 375 mg", "endpoint": "treatment-related TEAE, Mild severity", "result": "0%"}
{"Compound": "CC(C)=CCc1cc2c(cc1O)O[C@H](c1ccc(O)cc1)CC2=O", "target or system": "Spike glycoprotein", "assay": "binding", "endpoint": "koff", "result": "0.109 s⁻¹"}
{"Compound": "Cc1ccc2[nH]ncc2c1C(=O)NC[C@H]1Cc2ccccc2CN1C(=O)C[C@H](C)c1ccco1", "target or system": "rep main protease", "assay": "enzyme activity, inhibitor", "conditions": "5 µM, run 2", "endpoint": "inhibition", "result": "11.6%"}
{"Compound": "COc1oc(=O)c2cc(N)ccc2c1Cl", "target or system": "rep main protease", "assay": "viral replication, mKate2 reporter", "system": "SARS-CoV-2", "conditions": "20 µM", "endpoint": "inhibition", "result": "-0.397%"}
{"Compound": "C[C@]1(C(=O)N[C@@H]2CC[C@H]3C[C@@H]2CN3C(=O)Cc2cncc(O)c2)CCc2ccccc2C1", "target or system": "rep main protease", "assay": "enzyme activity, inhibitor", "conditions": "5 µM, run 1", "endpoint": "inhibition", "result": "13.8%"}
{"Compound": "CNC(=O)[C@@H](NC(=O)[C@H](CC(C)C)[C@H](O)C(=O)NO)C(C)(C)C", "target or system": "human fibrinogen", "assay": "SDS-PAGE", "system": "Daboia russelii", "conditions": "concentration not given, unit not given, with: MP venom", "how to read": "reference: untreated fibrinogen", "endpoint": "remaining fibrinogen Bβ chain", "result": 0.842}
{"Compound": "O.O=C1NC(=O)C(=O)C(=O)N1", "target or system": "rep main protease", "assay": "reporter gene (mKate2), inhibitor", "conditions": "20 µM", "endpoint": "inhibition", "result": "-0.0939%"}
{"Compound": "CCc1c(C(=O)C(N)=O)c2c(OCC(=O)O)cccc2n1Cc1ccccc1", "target or system": "C2C12", "conditions": "1 µM, with: AP venom", "how to read": "reference: venom alone", "endpoint": "viability difference", "result": "27.4%"}
{"Compound": "O=C(/C=C\\c1cnccn1)NC[C@@H](NC(=O)c1cn[nH]c(=O)c1)c1ccc2ccccc2c1", "target or system": "rep main protease", "assay": "enzyme activity, inhibitor", "conditions": "5 µM, run 2", "endpoint": "inhibition", "result": "11.4%"}
{"Compound": "O=C(N[C@@H](Cc1ccccc1)C(=O)O)OCc1ccccc1", "target or system": "rep main protease", "assay": "reporter gene (Gaussia luciferase), inhibitor", "conditions": "20 µM", "endpoint": "inhibition", "result": "1.1%"}
{"note": "Some of these lines once more:"}
{"Compound": "CC(C)=CCC[C@]1(C)C=Cc2c(O)c3c(c(CC=C(C)C)c2O1)O[C@]12C(=C[C@@H]4C[C@H]1C(C)(C)O[C@@]2(C/C=C(/C)C(=O)O)C4=O)C3=O", "target or system": "Spike glycoprotein", "assay": "binding, BLI", "endpoint": "koff", "result": "0.00448 s⁻¹"}
{"Compound": "CCCCCCCCCC(C)CCC(C)C(=O)OC (stereo not shown)", "target or system": "Spike glycoprotein, RBD (Severe acute respiratory syndrome coronavirus 2, UniProt P0DTC2)", "assay": "binding", "conditions": "concentration not given", "endpoint": "activity", "result": "inactive"}
